Published values of several laboratories.
± marks the error that the study gave.
Organism: Staphylococcus aureus

CCCN1CCNC1=[S+][Ag-3]([O][N+](=O)[O-])([P+](c1ccccc1)(c1ccccc1)c1ccccc1)[P+](c1ccccc1)(c1ccccc1)c1ccccc1
inhibition zone diameter (MTCC 740, DMSO; 0.1 mL of 50 mg/mL in 8 mm well, 18 to 24 h): 20 mm

S=C(NCc1ccccn1)NCc1ccccn1
inhibition zone (microbial growth, well diffusion; 20 µg/mL): 19 mm

CC(=O)N[C@@H](Cc1c[nH]cn1)C(=O)N[C@@H](Cc1ccccc1)C(=O)N[C@@H](CCCNC(=N)N)C(=O)N[C@@H](Cc1c[nH]c2ccccc12)C(=O)NCC(=O)N[C@@H](CCCCN)C(=O)N1CCC[C@H]1C(=O)N[C@H](C(N)=O)C(C)C
survival (calcein leakage flow cytometry; ATCC 33591; 30 µM, 2 h, 37 °C): 30 ± 4%

ONCc1cc(C(F)(F)F)cc(C(F)(F)F)c1
biofilm reduction (MIC, 72 h): ~50%

Oc1cc(F)ccc1Oc1ccccc1
post-antibiotic effect (RN4220; 4 x MIC, 1 h exposure, 37 °C): 0.25 h

CC(C)C[C@H](NC(=O)[C@H](CC(C)C)NC(=O)[C@H](CCCCN)NC(=O)[C@H](CC(C)C)NC(=O)[C@H](CC(C)C)NC(=O)[C@H](CCCCN)NC(=O)[C@H](CCCCN)NC(=O)[C@H](CC(C)C)NC(=O)[C@H](CC(C)C)NC(=O)[C@H](CCCCN)NC(=O)[C@H](CCCCN)NC(=O)[C@H](CC(C)C)NC(=O)[C@H](CC(C)C)NC(=O)[C@H](CCCCN)NC(=O)[C@@H](N)CC(C)C)C(N)=O
LC99.9 (MRSA AMC 201, RPMI medium; 24 h, 37 °C): 3.7 µM

CC[C@H](C)[C@H](NC(=O)[C@H](CCCCN)NC(=O)[C@H](CCCCN)NC(=O)[C@H](CC(C)C)NC(=O)[C@H](CCCCN)NC(=O)[C@H](CCC(=O)O)NC(=O)[C@H](CCCCN)NC(=O)[C@@H](NC(=O)[C@H](CCCCN)NC(=O)[C@H](CC(N)=O)NC(=O)[C@H](CCCNC(=N)N)NC(=O)[C@H](Cc1ccccc1)NC(=O)[C@H](CCCCN)NC(=O)[C@H](CCCNC(=N)N)NC(=O)[C@H](CC(C)C)NC(=O)[C@H](CCCNC(=N)N)NC(=O)[C@H](CCCCN)NC(=O)[C@H](CCCNC(=N)N)NC(=O)[C@H](CC(C)C)NC(=O)CN)[C@@H](C)CC)C(=O)NCC(=O)N[C@@H](CCC(N)=O)C(=O)N[C@@H](CCCCN)C(=O)N[C@H](C(=O)N[C@@H](CCC(N)=O)C(=O)NCC(=O)N[C@@H](Cc1ccccc1)C(=O)N[C@H](C(=O)N1CCC[C@H]1C(=O)N[C@@H](CCCCN)C(=O)N[C@@H](CC(C)C)C(=O)N[C@@H](C)C(=O)N1CCC[C@H]1C(=O)N[C@@H](CCCNC(=N)N)C(=O)N[C@H](C(=O)N[C@@H](CC(=O)O)C(=O)N[C@@H](Cc1ccc(O)cc1)C(=O)O)[C@@H](C)O)C(C)C)[C@@H](C)CC
lethal concentration (inhibition zone; MRSA P1374): 1.2 µM

CN1CC(=O)N=C1N.C[C@H](CCC(=O)O)[C@H]1CC[C@H]2[C@@H]3[C@@H](O)C[C@@H]4C[C@H](O)CC[C@]4(C)[C@H]3CC[C@]12C
inhibition zone diameter (TISTR 746; 1 mg per disc, 18 to 24 h, 37 °C, 6 mm disc): 7.2 ± 0.2 mm

C=Cc1cc(OC)c2c(c1)c(=O)oc1c2cc(OC)c2c(O)ccc([C@@H]3O[C@H](C)[C@H](O)[C@@](C)(O)[C@H]3O)c21
bacterial burden decrease (MRSA USA300, mouse epicutaneous infection; 9 mg/kg, day 6): ~7.2 log10 per wound

Some of these lines once more:
C=Cc1cc(OC)c2c(c1)c(=O)oc1c2cc(OC)c2c(O)ccc([C@@H]3O[C@H](C)[C@H](O)[C@@](C)(O)[C@H]3O)c21
bacterial burden decrease (MRSA USA300, mouse epicutaneous infection; 9 mg/kg, day 6): ~7.2 log10 per wound
